Measurements gathered from unrelated publications.
Numbered parts are unrelated; each lists some results of a single study. Substitutions count along the parent as printed.

Block 1
Target: CCND2, cyclin fold, Cln2 fusion (human)
Technique: yeast growth competition, sequencing
Matrix: yeast
Notes: weak parent motif
Baseline: not given
Reading: higher = stronger binding
Measurement: normalised enrichment score
Parent: RB1 docking peptide (human); PKPLKKLRFDIEG; partner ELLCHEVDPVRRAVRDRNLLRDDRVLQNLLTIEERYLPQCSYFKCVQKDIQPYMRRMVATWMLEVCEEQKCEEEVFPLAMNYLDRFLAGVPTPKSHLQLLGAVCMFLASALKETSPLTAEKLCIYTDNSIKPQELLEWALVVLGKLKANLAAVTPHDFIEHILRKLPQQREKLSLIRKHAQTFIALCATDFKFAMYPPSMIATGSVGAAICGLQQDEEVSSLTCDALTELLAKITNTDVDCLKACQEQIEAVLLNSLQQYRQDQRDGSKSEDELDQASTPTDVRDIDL
Variant = I11K; value = 0.115
Variant = L7W; value = 0.162
Variant = E12W; value = 0.183
Variant = F9T; value = 0.255
Variant = P3F; value = -0.471
Variant = K5Y; value = 0.558
Variant = K2C; value = 0.187
Variant = K2V; value = 0.56
Variant = I11G; value = 0.084
Variant = D10P; value = 0.376
Variant = R8A; value = 0.116
Variant = F9P; value = -0.0703
Variant = L4I; value = 0.683
Variant = L7H; value = 0.204
Variant = K5N; value = -0.0608
Variant = D10L; value = -0.506
Variant = P1M; value = 0.00115
Variant = P1K; value = 0.225
Variant = P3G; value = 0.421
Variant = E12M; value = -0.0775
Variant = K5M; value = -0.185
Variant = K5E; value = 0.0483
Variant = D10K; value = 0.285
Variant = K5D; value = 0.0589
Variant = P3K; value = -0.65

Block 2
Target: ABI1, truncated, D143A, DHFR fusion (Arabidopsis thaliana)
Technique: DHFR PCA, deep sequencing
Matrix: yeast
Notes: methotrexate growth selection, single substitutions
Added: (+)-ABA 0.0091 µM
Baseline: wild-type fitted maximum
Reading: higher = stronger binding
Measurement: relative binding score
Parent: PYL1, truncated, DHFR fusion (Arabidopsis thaliana); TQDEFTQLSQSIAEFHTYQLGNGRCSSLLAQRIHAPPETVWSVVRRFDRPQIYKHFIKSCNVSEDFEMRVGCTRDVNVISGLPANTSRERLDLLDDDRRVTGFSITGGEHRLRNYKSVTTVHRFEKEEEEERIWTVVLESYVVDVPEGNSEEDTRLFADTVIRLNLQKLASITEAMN; partner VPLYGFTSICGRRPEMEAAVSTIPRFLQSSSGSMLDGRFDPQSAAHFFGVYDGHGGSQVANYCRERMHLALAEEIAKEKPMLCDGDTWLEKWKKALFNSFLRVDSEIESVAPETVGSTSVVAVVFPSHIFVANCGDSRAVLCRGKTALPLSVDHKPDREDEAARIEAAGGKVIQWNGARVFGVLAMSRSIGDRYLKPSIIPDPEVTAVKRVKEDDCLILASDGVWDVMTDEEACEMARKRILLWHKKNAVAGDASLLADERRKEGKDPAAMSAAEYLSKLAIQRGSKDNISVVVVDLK
Variant = D95P; value = -8.03%
Variant = F56C; value = 0.597%
Variant = L94E; value = -10%
Variant = M176I; value = 7.05%
Variant = Q31H; value = 5.99%
Variant = L82V; value = 9.62%
Variant = I52W; value = 8.01%
Variant = K126D; value = 56.8%
Variant = H122T; value = 1.25%
Variant = T106Q; value = 13.9%
Variant = Q167G; value = 3.01%
Variant = D159Q; value = -13.9%
Variant = D153I; value = -4.47%
Variant = T160E; value = 16.4%
Variant = T73A; value = 4.44%
Variant = N165H; value = -1.72%
Variant = A158N; value = 22%
Variant = V142M; value = 5.66%
Variant = S80E; value = 4.12%
Variant = V143T; value = 11.8%
Variant = H16D; value = -0.21%
Variant = V143G; value = -1.04%
Variant = L164H; value = -1.26%
Variant = E125Y; value = 25.3%
Variant = P50W; value = -0.186%

Block 3
Target: RING finger protein unkempt homolog, zinc fingers 1-6, GST-SBP tag (UNK, Homo sapiens, UniProt Q9C0B0, residues 30-357)
Technique: RNA Bind-n-Seq
Form: RNA
Matrix: in vitro
Concentration: not given
Notes: RNA with constant flanks, ends assumed
Baseline: input RNA pool
Reading: higher = stronger binding
Measurement: bound/input enrichment
Constant ends, left off below: GGGAGUUCUACAGUCCGACGAUC … CAACAGAGGAUUGAGCAUCA
Target sequence (chain): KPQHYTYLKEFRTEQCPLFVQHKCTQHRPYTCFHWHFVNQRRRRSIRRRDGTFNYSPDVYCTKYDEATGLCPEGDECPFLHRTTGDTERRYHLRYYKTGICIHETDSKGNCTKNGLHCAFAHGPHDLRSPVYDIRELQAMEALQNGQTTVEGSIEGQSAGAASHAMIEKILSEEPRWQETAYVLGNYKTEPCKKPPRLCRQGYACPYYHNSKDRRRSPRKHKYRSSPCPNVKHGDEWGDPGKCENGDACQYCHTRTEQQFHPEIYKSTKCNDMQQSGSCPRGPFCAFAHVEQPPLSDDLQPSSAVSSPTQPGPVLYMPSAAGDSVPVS
Sequence = GUUCGCUUGUAUCGUAAAGCAUUAGAAGUCUUCCCAGAGUUUGCUGCUGCCCAUUCAAAUUCCGCAAGUGUACUGCAGCAGCAGGGAAAACUGCAGGAAGCUCUGAUGCAUUAUAAGGAG; value = 0.126 ratio
Sequence = AUUGAGUGCGGCUGGAAGGAUCAGCUAAAGGCACACUGUAAAGGUAAUUAAAGAAAAAGGACCCGAACACGUUACUGUUGAUGACUUGGUGGCUGAAAUCACUCCAAAAGGCAGAGCCCU; value = 0.111 ratio
Sequence = GUUUACAUCUUUGGUGACGGACGAGGCCUUAUAGAAGGAAAUGACAUUUAUGGUAAUGCGUCCGCAGGAAUUCAGAUCAGGACAAACAGUUGUCCUAUUGUUCGACAUAACAAAAUUCAU; value = 0.231 ratio
Sequence = UCCACAGAAGCCUCAUCCCAAGAACAUCAACACAGAGCUCCCGACGCUGGGAUUGUAUCCCGUAUACCUUUACAAAGACUUUUUAAACCAAAGGACAUGGACUGUUGGGAAGUUCAGACU; value = 0.353 ratio
Sequence = AAGGAGUAAGCAAAUUGGAGGUGGAGGGUGGGCCUCACCUUAUACUACAAUCAAACCUUGCCGUUUGGGGUGUUUUGUUUGUUUGUUUUGUAUUGUAUUGUUUUUAAACAAGUCUAGCCA; value = 0.403 ratio
Sequence = CCUCUGGCCACAUAUGCCCCUGUCAUCUCUGCUGAGAAAGCCUACCACGAACAGCUUACUGCCGCAGAGAUCACCAAUGCUUGCUUUGAGCCAGCCAACCAGAUGGUGAAAUGUGACCCU; value = 0.0939 ratio
Sequence = AAGUCCCUGUUAUACUGAGUCAAAUCCAUUUUCUGGGUGAAUAAAUUUGGCCCUGCAGUGCCGCUCUUGUUCACCCUUUCCUUCCUUGGUGUUGUGUGUGAGAGAUGAGUGUUUUCCUGU; value = 0.156 ratio
Sequence = ACUGACACGAUGAUUCAGACUCCUGGACCCUUGCCAACCCCACAGCUCACCUCCACGGUACUCCGAGAAAACAGCCGUCCCAUGGGAGAGCAGAUUCAGGAACCUGAGUCUGAGCAUGGC; value = 0.0675 ratio
Sequence = CCAGUAUUCAACAUGUCAUACAAUCCAGCAGAAAACGCAGUGCUGCUCUGCACCAGAGCAAGCAAUCCCGAGAACAGUACCUACGACCUAUACACCAUCCCCAAAGACGCAGACUCCCAG; value = 0.423 ratio
Sequence = ACUAACAAAAGUGCCUCAUGAUAAAAGUACAUUUGAUUUUUAGGGUGCCAUAUUGUUAAAAUCCGAAAAUUGAAUAAAUGAAUGCAUUUUAUCAGUAACAAGUUUCCUUCCAUUUACCAG; value = 0.22 ratio
Sequence = GAGGUAUUGGAAGCCUUGUAUGAUGGUAGCCUAGGAGACUGUAAAGAAGCUGCUGAAAUUUACCGAGCAAAUUGUCAUAAGCUUUUCCCUUAUGCUUUGGCUUUCAUGCCUCCUGGAUAU; value = 0.226 ratio

Block 4
Target: Ras GTPase-activating protein-binding protein 1, RRM domain (G3BP1, Homo sapiens, UniProt Q13283)
UniProt Q13283, sequence (whole entry, looked up): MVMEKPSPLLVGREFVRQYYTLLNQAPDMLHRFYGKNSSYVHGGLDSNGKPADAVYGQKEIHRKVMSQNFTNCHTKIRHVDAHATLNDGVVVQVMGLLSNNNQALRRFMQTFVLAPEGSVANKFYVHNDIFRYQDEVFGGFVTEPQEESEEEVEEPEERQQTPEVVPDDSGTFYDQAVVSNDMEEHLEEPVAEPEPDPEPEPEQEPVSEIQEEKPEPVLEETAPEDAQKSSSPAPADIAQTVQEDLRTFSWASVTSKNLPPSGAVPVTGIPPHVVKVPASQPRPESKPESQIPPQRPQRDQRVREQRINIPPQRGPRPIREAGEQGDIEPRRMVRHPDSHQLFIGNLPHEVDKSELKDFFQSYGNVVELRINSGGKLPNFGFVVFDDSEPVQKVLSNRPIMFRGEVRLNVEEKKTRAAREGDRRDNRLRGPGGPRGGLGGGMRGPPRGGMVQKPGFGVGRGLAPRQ
Technique: RNA Bind-n-Seq
Form: RNA
Matrix: in vitro
Concentration: 1 µM
Notes: whole 134-nt RNA, ends assumed
Added: 150 mM KCl
Baseline: input library
Reading: higher = stronger binding
Measurement: log2 enrichment
Constant ends, left off below: GGGAGUUCUACAGUCCGACGAUC … UGGAAUUCUCGGGUGUCAAGG
Sequence = CCUGUGCUACACAUCGUAUGUACCGAAUCAAACCCCCAAAUUUUUUUAAACCCCCCCAAAAAAGUAUUAUGUUACGCCGUUCGGAUCUGC; value = -0.571
Sequence = CUGUGCUACACAUCGUAUGUACCGAAUCGGGGAAAAAGGGGAAAAAGGGGUUUUUUUGGGGAAAGUAUUAUGUUACGCCGUUCGGAUCUG; value = 1.15
Sequence = AGUCCUGUGCUACACAUCGUAUGUACCGAAUCGGUUUUUGGGGUUUUUGGUUUUUGGGAAAGUAUUAUGUUACGCCGUUCGGAUCUGCAC; value = -0.164
Sequence = CCUCAAGUCCUGUGCUACACAUCGUAUGUACCGAAUCGGGCCGGCCGGCCGGGAAAGUAUUAUGUUACGCCGUUCGGAUCUGCACUUCCA; value = -0.373
Sequence = CCUCAAGUCCUGUGCUACACAUCGUAUGUACCGAAUCGGUGGUUUUUGGUGGAAAGUAUUAUGUUACGCCGUUCGGAUCUGCACUUCCAG; value = -0.235
Sequence = GCAGGAAGUAAAAACAAAUGGAAAUGCUUCGGAUAGUGAAAGGGGUGGGGGUUGCUAAGGAAAGGGUGGGAUGGGAGUGGGUAAAGAGUU; value = 1.43
Sequence = UUGGAGGUGGAUUUUGUUUAUUUUUUUAGCUCAUUUCCAGGGGUGGGAAUUUUUUUUUAAUAUGUGUCAUGAAUAAAGUUGUUUUUGAAA; value = 1.62
Sequence = ACCAUGCAGGUGGGCAUCUUUGGGAAGUGGGGCAAGGGGGGGAUAGGGAGGGGGGUAACACUUUGGGACCAGGUGGUCCCAGGUCGUUUC; value = 0.988
Sequence = AAGUCCUGUGCUACACAUCGUAUGUACCGAAUCGGGUGGGUUUGGGAAAAAAAGGGAAAGUAUUAUGUUACGCCGUUCGGAUCUGCACUU; value = 0.372
Sequence = CCUGUGCUACACAUCGUAUGUACCGAAUCGGGAAAAAAAGGGAAAAAAAGGGAAAAAGGGAAAGUAUUAUGUUACGCCGUUCGGAUCUGC; value = -0.0925
Sequence = UGGGAGGUGGAUUUUGUUUAUUUUUUUAGCUCAUUUCCAGGGGUGGGAAUUUUUUUUUAAAAUGUGUCAUGAAUAAAGUUGUUUUUGAAA; value = 1.58
Sequence = UGGGAGGUGGAUUUUGUUUAUUUUUUUAGCUCAUUUCCAGGGGUGGGAAUUUUUUUUUAAUAUGUGUCAUGAAUAAAGUUGUUUGUGAAA; value = 1.5
Sequence = AGUCCUGUGCUACACAUCGUAUGUACCGAAUCGGGCCCCGGGGCCCCGGGCCCCGGGGAAAGUAUUAUGUUACGCCGUUCGGAUCUGCAC; value = -1.3
Sequence = UCCUGUGCUACACAUCGUAUGUACCGAAUCGGGUUUUUUGGGGUUUUUUGGGUUUUUUGGAAAGUAUUAUGUUACGCCGUUCGGAUCUGC; value = -0.0979

Repeated from above (block 4):
Sequence = GCAGGAAGUAAAAACAAAUGGAAAUGCUUCGGAUAGUGAAAGGGGUGGGGGUUGCUAAGGAAAGGGUGGGAUGGGAGUGGGUAAAGAGUU; value = 1.43
Sequence = UUGGAGGUGGAUUUUGUUUAUUUUUUUAGCUCAUUUCCAGGGGUGGGAAUUUUUUUUUAAUAUGUGUCAUGAAUAAAGUUGUUUUUGAAA; value = 1.62
Sequence = ACCAUGCAGGUGGGCAUCUUUGGGAAGUGGGGCAAGGGGGGGAUAGGGAGGGGGGUAACACUUUGGGACCAGGUGGUCCCAGGUCGUUUC; value = 0.988
Sequence = AAGUCCUGUGCUACACAUCGUAUGUACCGAAUCGGGUGGGUUUGGGAAAAAAAGGGAAAGUAUUAUGUUACGCCGUUCGGAUCUGCACUU; value = 0.372
Sequence = CCUGUGCUACACAUCGUAUGUACCGAAUCGGGAAAAAAAGGGAAAAAAAGGGAAAAAGGGAAAGUAUUAUGUUACGCCGUUCGGAUCUGC; value = -0.0925
Sequence = UGGGAGGUGGAUUUUGUUUAUUUUUUUAGCUCAUUUCCAGGGGUGGGAAUUUUUUUUUAAAAUGUGUCAUGAAUAAAGUUGUUUUUGAAA; value = 1.58
Sequence = UGGGAGGUGGAUUUUGUUUAUUUUUUUAGCUCAUUUCCAGGGGUGGGAAUUUUUUUUUAAUAUGUGUCAUGAAUAAAGUUGUUUGUGAAA; value = 1.5
Sequence = AGUCCUGUGCUACACAUCGUAUGUACCGAAUCGGGCCCCGGGGCCCCGGGCCCCGGGGAAAGUAUUAUGUUACGCCGUUCGGAUCUGCAC; value = -1.3
